Published values gathered from unrelated publications.
Each line is one published result; not all experiments were run side by side. ± marks the error that the study gave.

Structure (SMILES) | cell line | test | conditions | IC50 [µM]
C[C@H]1[C@H](OC(=O)CCC(=O)OCCc2ccc(O)cc2)O[C@@H]2O[C@@]3(C)CC[C@H]4[C@H](C)CC[C@@H]1[C@@]24OO3 | SK-MEL-24 | cell growth or viability, MTT | 24 h | 1.5
O=C(O)c1ccc([PH]([Au][Cl])(c2ccccc2)c2ccccc2)cc1 | T24 | cell growth or viability, resazurin | 72 h | 89.9
CN(C)C1=[S+][Au-]2([S]1)[c]1ccccc1-c1cccc[c]12 | UWB1289 | cell growth or viability, MTT | 72 h | > 100
Cc1cc(C)c(N2CCN(c3c(C)cc(C)cc3C)C2=[Se])c(C)c1.[Cl][Ag] | H157 lung carcinoma cells | cell viability, MTT | 72 h | 1 ± 0.2
CC(C)C[C@H](NC(=O)[C@H](CC(C)C)NC(=O)[C@H](CCC(=O)O)NC(=O)[C@H](CCC(=O)O)NC(=O)[C@H](CC(C)C)NC(=O)[C@H](Cc1c[nH]cn1)NC(=O)[C@H](Cc1c[nH]cn1)NC(=O)[C@H](CC(C)C)NC(=O)[C@H](CC(C)C)NC(=O)[C@H](CCC(=O)O)NC(=O)[C@H](CCC(=O)O)NC(=O)[C@@H](N)CC(C)C)C(=O)N[C@@H](Cc1c[nH]cn1)C(=O)N[C@@H](Cc1c[nH]cn1)C(N)=O | 4T1 | cell growth or viability, MTT | pH 6 | > 100
CCCC1(CN2c3ccccc3Sc3ccccc32)CCN(CC)C1 (stereo not drawn) | Vero 76 | cytotoxicity |  | 20.7 ± 13.7
N=C(N)NCCC[C@H](NC(=O)[C@@H]1CSSC[C@H](NC(=O)[C@H](Cc2ccc3ccccc3c2)NC(=O)[C@H](CCCNC(=N)N)NC(=O)[C@H](CCCNC(=N)N)NC(=O)c2ccc(F)cc2)C(=O)N[C@@H](Cc2ccc(O)cc2)C(=O)N[C@@H](CCCNC(N)=O)C(=O)N[C@@H](CCCCNC(=O)CN2CCN(CC(=O)O)CCN(CC(=O)O)CCN(CC(=O)O)CC2)C(=O)N[C@H](CCCCNC(=O)CN2CCN(CC(=O)O)CCN(CC(=O)O)CCN(CC(=O)O)CC2)C(=O)N2CCC[C@H]2C(=O)N[C@@H](Cc2ccc(O)cc2)C(=O)N[C@@H](CCCNC(=N)N)C(=O)N[C@@H](CCCNC(N)=O)C(=O)N1)C(N)=O [copper-64 labelled] | mouse red blood cells | binding, homologous displacement | 45 min, room temperature | 0.0684
CC[C@@H]1NC(=O)[C@H](CCCNC(=N)N)NC(=O)[C@H](NC(=O)C(C)C)CCNC(=O)c2cc(F)c(c(F)c2)/N=N/c2c(F)cc(cc2F)C(=O)NCCNC(=O)[C@@H](Cc2ccccc2)NC1=O | MOLM-13 | cell viability | 2 days, pep-1 transfection | > 150
CC(C)C[C@H](NC(=O)[C@H](CCCCN)NC(=O)[C@H](CC(C)C)NC(=O)[C@H](CC(C)C)NC(=O)[C@H](CCCCN)NC(=O)[C@H](CCCCN)NC(=O)[C@H](CC(C)C)NC(=O)[C@H](CC(C)C)NC(=O)[C@H](CCCCN)NC(=O)[C@H](CC(C)C)NC(=O)[C@H](CC(C)C)NC(=O)[C@H](CCCCN)NC(=O)[C@H](CCCCN)NC(=O)[C@H](CC(C)C)NC(=O)[C@@H](N)CSSC[C@H](N)C(=O)N[C@@H](CC(C)C)C(=O)N[C@@H](CCC(=O)O)C(=O)N[C@@H](CCC(=O)O)C(=O)N[C@@H](CC(C)C)C(=O)N[C@@H](CC(C)C)C(=O)N[C@@H](Cc1c[nH]cn1)C(=O)N[C@@H](Cc1c[nH]cn1)C(=O)N[C@@H](CC(C)C)C(=O)N[C@@H](CCC(=O)O)C(=O)N[C@@H](CCC(=O)O)C(=O)N[C@@H](CC(C)C)C(=O)N[C@@H](CC(C)C)C(=O)N[C@@H](Cc1c[nH]cn1)C(=O)N[C@@H](Cc1c[nH]cn1)C(N)=O)C(N)=O | 4T1 | cell growth or viability, MTT | pH 6 | 15.3
OC[C@H]1[C@@H](O)[C@@H](O)CN1Cc1ccc(I)cc1 | HCT116 p53-/- | MTS | 72 h | > 200
CCOC(=O)[C@@H]1Cc2c(cc([N+](=O)[O-])cc2[N+](=O)[O-])[C@H](O)[C@]12C(=O)Nc1ccc(Br)cc12 | U-251 | cell growth or viability, MTT | 24 h | 5.8
[Cl][Ag].[Se]=c1n(C2CCCCC2)ccn1C1CCCCC1 | H157 lung carcinoma cells | cell viability, MTT | 72 h | 4.8 ± 0.9
CCc1c2c(nc3ccc(OC(=O)CCC(=O)O)cc13)-c1cc3c(c(=O)n1C2)COC(=O)[C@]3(O)CC | CT26 | cell growth or viability, MTT | 48 h | 0.566
C[C@H]1C(OCCCCCCC[P+](c2ccccc2)(c2ccccc2)c2ccccc2)O[C@@H]2O[C@@]3(C)CCC4[C@H](C)CCC1[C@]42OO3 (stereo partly drawn) | T24 | cell growth or viability, MTT | 72 h | 0.0605
CC1(C)OB(c2ccc(COC(=O)N(Cc3cccc(CN4CCCCC4)c3)[c-]3cccc3)cc2)OC1(C)C.[Fe+2].c1cc[cH-]c1 | BL2 | cell growth or viability, MTT | 48 h | 3.9
CCOC(=O)[C@@H]1Cc2c(cc([N+](=O)[O-])cc2[N+](=O)[O-])[C@@H](O)[C@@]12C(=O)Nc1ccc(Cl)cc12 (single isomer, unassigned) | U-87 MG | cell growth or viability, MTT | 24 h | 41.6
COc1cc(C=CC(=O)CC(=O)C=Cc2ccc(OC(=O)CCC(=O)OC3OC4OC5(C)CCC6C(C)CCC(C3C)C46OO5)c(OC)c2)ccc1OC(=O)CCC(=O)OC1OC2OC3(C)CCC4C(C)CCC(C1C)C24OO3 (stereo not drawn) | SK-MEL-3 | cell viability, MTT | 24 h | 3.43 ± 0.16
[CH3][Ti+2][O]C(=O)c1ccc([S][Au][PH](c2ccccc2)(c2ccccc2)c2ccccc2)cc1.c1cc[cH-]c1.c1cc[cH-]c1 | renal proximal tubule cells | cytotoxicity, XTT | 72 h | 2.67 ± 0.12

Structure (SMILES) | cell line | test | conditions | IC50 [µM]
CC[C@H]1OC(=O)[C@H](C(C)C)NC(=O)[C@H](C)OC(=O)[C@@H](C(C)C)NC(=O)[C@@H](C(C)C)OC(=O)[C@H](C(C)C)NC(=O)[C@H](C)OC(=O)[C@@H](C(C)C)NC(=O)[C@@H](C(C)C)OC(=O)[C@H](C(C)C)NC(=O)[C@H](C)OC(=O)[C@@H](C(C)C)NC1=O | U-251 | cell growth or viability, SRB | 72 h | 0.4
O=C(C[P+]([Au-][Cl])(c1ccccc1)c1ccccc1)[O][Ti+2][O]C(=O)C[P+]([Au-][Cl])(c1ccccc1)c1ccccc1.c1cc[cH-]c1.c1cc[cH-]c1 | UO-31 | cell viability, XTT | 24 h | 6.3
CC(=O)N[C@@H](CC(C)C)C(=O)N[C@@H](C)C(=O)N1CCC[C@H]1C(=O)N1CCC[C@H]1C(=O)N[C@@H](CC(C)C)C(=O)N[C@@H](Cc1c[nH]cn1)C(=O)N[C@@H](CO)C(=O)N[C@H](C(=O)N[C@@H](C)C(N)=O)[C@@H](C)OP(=O)(O)O | U-266 | cell growth or viability, MTT | 72 h | 0.97
C[C@H]1[C@H](OCCc2ccc(O)cc2)O[C@@H]2O[C@@]3(C)CC[C@H]4[C@H](C)CC[C@@H]1[C@@]24OO3 | SK-MEL3 | cell growth or viability, MTT | 24 h | 10.6
C#CCN[C@@H]1C=C[C@]2(O[C@H]([C@@H](CC)C(=O)[C@@H](C)[C@@H](O)[C@H](C)[C@@H]3O[C@@H]([C@@H](CC)C(=O)O)CC[C@@H]3C)[C@@H](C)C[C@H]2C)O[C@@]12CC[C@@](C)([C@H]1CC[C@](O)(CC)[C@H](C)O1)O2 | MCF-10A | cell growth or viability, resazurin | 72 h | 0.12
C[C@H]1O[C@@H](O[C@H]2CC[C@@]3(C)[C@H](CC[C@@H]4[C@@H]3C[C@@H](O)[C@]3(C)[C@@H](C5=CC(=O)OC5)[C@@H](O)C[C@]43O)C2)C[C@H](O)[C@@H]1O | BEAS-2B | cell growth or viability, MTT | 48 h | 2.4
C1=CCCC=CCC1.C1=CCCC=CCC1.[Cl][Hg-]([Cl])[Cl].[Cl][Hg-]([Cl])[Cl].[Pt+][c]1ccccc1P(=Nc1ccccc1)(c1ccccc1)c1ccccc1.[Pt+][c]1ccccc1P(=Nc1ccccc1)(c1ccccc1)c1ccccc1 | MIA PaCa-2 | cell growth or viability, MTT | 24 h | 0.79
Cc1nc([C@H](NC(=O)c2ccc(-c3ccc(Cl)cc3)[nH]2)[C@@H]2CCCCN2)sc1CO | MAGI-CCR5 and HL2/3 cells | HIV-1 Env-mediated cell fusion, beta-galactosidase |  | 10.8
Cc1ccc(C(C)C)cc1.Cn1ccnc1CNCCNc1ccnc2cc(Cl)ccc12.[Cl-].[Cl][Ru+] | CHO | cytotoxicity, MTT |  | > 160
CC1OC(OC2CCC3(C)C(CCC4C3CCC3(C)C(C5=CC(=O)OC5)CCC43O)C2)C(O)C(O)C1OC1OC(CO)C(O)C(O)C1O (stereo not drawn) | BEAS-2B | cell growth or viability, MTT | 48 h | 0.29
Cc1cc(C)c(S(=O)(=O)N2CC2C(N)=O)c(C)c1 (stereo not drawn) | HT-1080 | cell growth or viability, MTT | 48 h | 170
CC(C)C[C@H](NC(=O)[C@H](CC(C)C)NC(=O)[C@H](Cc1c[nH]cn1)NC(=O)[C@H](CCC(=O)O)NC(=O)[C@H](CC(C)C)NC(=O)[C@H](Cc1c[nH]cn1)NC(=O)[C@H](CCC(=O)O)NC(=O)[C@H](CC(C)C)NC(=O)[C@H](CC(C)C)NC(=O)[C@H](Cc1c[nH]cn1)NC(=O)[C@H](CCC(=O)O)NC(=O)[C@@H](N)CC(C)C)C(=O)N[C@@H](CCC(=O)O)C(=O)N[C@@H](Cc1c[nH]cn1)C(N)=O | 4T1 | cell growth or viability, MTT | pH 7.4 | > 100
CCC(C)C1OC(=O)C(NC(=O)c2cccc(NC=O)c2O)C(C)OC(=O)C(C(C)CC)OC(=O)C(C)(C)C(=O)C(Cc2ccccc2)OC1=O (stereo not drawn) | HCT-8 | cell growth or viability, CCK-8 | 72 h | 0.0303
COc1ccc(/C=C/C(=O)CC(=O)/C=C/c2ccc(OC)c(OC)c2)cc1OC | human Glioma cell | cell growth or viability, MTS | 24 h | 16.8
[Cl][Os][Ge]([Cl])([Cl])[Cl].c1ccc(P(c2ccccc2)c2ccccc2)cc1.c1ccccc1 | Ehrlich | cell growth or viability, MTT | 24 h | 13.7
COc1cccc2c1C(=O)c1c(O)c3c(c(O)c1C2=O)C[C@@](O)(C(=O)CO)C[C@@H]3O[C@H]1C[C@H](NC(=O)CCN2C(=O)CC(SC[C@H](N)C(=O)N3CCC[C@H]3C(=O)N[C@@H](CCCCN)C(=O)N[C@@H](CCCCN)C(=O)N[C@@H](CCCCN)C(=O)N[C@@H](CCCNC(=N)N)C(=O)N[C@@H](CCCCN)C(=O)N[C@H](C(N)=O)C(C)C)C2=O)[C@H](O)[C@H](C)O1 (stereo partly drawn) | MCF7, doxorubicin-sensitive | cytotoxicity, CCK-8 | 48 h | 6.23 ± 0.37
C[C@@H](O)[C@H](NC(=O)[C@H](CCCNC(=N)N)NC(=O)[C@H](CCCNC(=N)N)NC(=O)[C@H](CCCNC(=N)N)NC(=O)[C@@H]1CCCN1C(=O)[C@@H](N)CO)C(=O)N1CCC[C@H]1C(=O)N[C@@H](CO)C(=O)N1CCC[C@H]1C(=O)N[C@@H](CCCNC(=N)N)C(=O)N[C@@H](CCCNC(=N)N)C(=O)N[C@@H](CCCNC(=N)N)C(=O)N[C@@H](CCCNC(=N)N)C(=O)N[C@@H](CO)C(=O)N[C@@H](CCC(N)=O)C(=O)N[C@@H](CO)C(=O)N1CCC[C@H]1C(=O)N[C@@H](CCCNC(=N)N)C(=O)N[C@@H](CCCNC(=N)N)C(=O)N[C@@H](CCCNC(=N)N)C(N)=O | Hs68 | cell viability, CellTiter-Blue | 24 h, serum-free medium | > 100
C[C@H]1C(OCCCC[P+](c2ccccc2)(c2ccccc2)c2ccccc2)O[C@@H]2O[C@@]3(C)CCC4[C@H](C)CCC1[C@]42OO3 (stereo partly drawn) | T24 | cell growth or viability, MTT | 72 h | 0.357
